Results gathered from unrelated publications.
Parts stem from different laboratories: compare values within a part only. Substitutions count along the parent as printed.

Series 1
Target: RNA binding protein fox-1 homolog 2, RRM domain, GST-SBP tag (RBFOX2, Homo sapiens, UniProt O43251-10, residues 100-194)
Technique: RNA Bind-n-Seq
Molecule type: RNA
Medium: in vitro
Tested at: 365 nM
Notes: natural RNA segment, single round, ends assumed
Baseline: no-protein control
Reading: higher = stronger binding
Residues (chain): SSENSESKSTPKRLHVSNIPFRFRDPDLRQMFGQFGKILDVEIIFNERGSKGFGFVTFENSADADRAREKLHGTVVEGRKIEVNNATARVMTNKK
For `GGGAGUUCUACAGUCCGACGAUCCCUGAGUGGAACAUCUGGCCAUGCAUGGUUGUGAUGGGCCAUUGCUUUCGCUGCUUUAGAGCACCACAGACCUGACUGCUGCCGAGUCGGUCCCUGCAGCUAAUGCUCGAUGGAAUUCUCGGGUGCCAA`, “RBNS enrichment (R)” read 0.682.
`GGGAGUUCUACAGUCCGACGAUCGUGAGCUCUGGUUAUUUUUCUCUUGUACCAUAUGAAAGUAUAUAAAAAUUAUCAAAAAGCUGAUGUGCAGGGAUAUUGCCUUAUUUGUCUGUAAAAAUGUAGCUCAGUAAUGGAAUUCUCGGGUGCCAA`: “RBNS enrichment (R)” 0.713.
`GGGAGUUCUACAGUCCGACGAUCCCAAAUUAACACUACCUCCUCCCCAGUUGUUGGUAUUCAUUCAUUAUAUGUGUGUUUAACAGGAUGAGAGCAUGGCGAGCUUGUAGCACACCAGAGGUUGUAGACCUAUAUGGAAUUCUCGGGUGCCAA`: “RBNS enrichment (R)” 1.27.
For `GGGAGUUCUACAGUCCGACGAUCGCAGUGCAGCACCGGCCCAGGGCAUCACUAGACAGGCCCUAAUUAAGUUUUUUUUAAAAAGCCUGUGUAUUUAUUUUAGAAUCAUGUUUUUCUGUAUAUUAACUUGGGGGUGGAAUUCUCGGGUGCCAA`, “RBNS enrichment (R)” read 0.806.
Under “RBNS enrichment (R)”, `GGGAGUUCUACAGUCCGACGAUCAACACCUUGAGCCUUAAAUCCCGGCUGCUGGGAAAGUAUAUGCUGUUCCUAGAACAUUCACUGUGCCUUUGCCUGCUUGCUGGCUGCAGCCUCAGAAGGAAAGCCAGGGGUGGAAUUCUCGGGUGCCAA` is recorded as 0.427.
`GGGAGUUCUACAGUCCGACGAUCGUCGCACUAACGCUCUCGUGGUUGCUCGACUGUUGUAUCUGUGAUACAUUAUCCGACUAAGGACUCUGGGCUGGCAGGGCCUUCUGCCGGGAAAGCUAGAAACACUAGGUUGGAAUUCUCGGGUGCCAA` — result for “RBNS enrichment (R)”: 0.22.
`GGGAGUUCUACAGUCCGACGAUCUCAGGAGUGUCCUAUGUGAGAAUUGAGCCAAGGAAAAUACUCAUGCAACCAGCCUGAGUCGCGGUGAGGGGACGAGAGGUUGUACACACAUUGGUAGUUAUUUUGCACCAUGGAAUUCUCGGGUGCCAA`: “RBNS enrichment (R)” 0.902.
`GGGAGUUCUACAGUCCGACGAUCCGGUCUCACUGAUAACAGCUCCAGAAAAAAAGACAAGGCUCCCCCUCUGACCCUUCCUGUUGGUAUUUAUGAAAUCUCAAAGAGAUGAGCCACCUUGGCUUCCAAUAUGGUGGAAUUCUCGGGUGCCAA` — result for “RBNS enrichment (R)”: 0.593.
`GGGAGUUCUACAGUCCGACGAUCUGUUCUGUGUUCAAGCUCCUGUGGGCAACUCAAUUGUUUUAAGAAAACUCUAUUUCUGUUCAUAUUAAUUCACUUGCCAGACUCCAAUUCUGAAAGUUGUCUAGUUCUUCUGGAAUUCUCGGGUGCCAA` — result for “RBNS enrichment (R)”: 0.354.
For `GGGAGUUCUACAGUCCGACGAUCUUUAUAUGUGACAAGUGAAAAUUAUAUGAAAUUUAAGAGUCCAUAAAUAAAAUUUGUUGGAACACAACCAGGCUAAUUCAUUUAGUAUUGUGAUAGCUGCUUUCGCGCUAUGGAAUUCUCGGGUGCCAA`, “RBNS enrichment (R)” read 0.575.
`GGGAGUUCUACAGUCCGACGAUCAGAAAGUACUUUAUGUAACUAAGUGGGCUGUUCAGAAGCUUAGAGGUCAUUUUUUGUAAUUUUCUUUUUAAUUACUUUAGAGAGCUAGGGAUGCAAAUGUUUUCAGUUAGUGGAAUUCUCGGGUGCCAA`: “RBNS enrichment (R)” 1.67.
For `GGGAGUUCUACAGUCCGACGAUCACUGGCUAGGCUGCUUCAGUUUACAACAGGCUCUUCUCAGCUCCCACCUGGAGGAUUUGCUGCCCUCUGUCCCUCAUUUCAGAUUAUUGCUGCUCCAACCCAUAGCACGCUGGAAUUCUCGGGUGCCAA`, “RBNS enrichment (R)” read 1.67.

Series 2
Target: RING finger protein unkempt homolog, zinc fingers 1-6, SBP tag (UNK, Homo sapiens, UniProt Q9C0B0, residues 30-357)
UniProt Q9C0B0, sequence (30-357, looked up): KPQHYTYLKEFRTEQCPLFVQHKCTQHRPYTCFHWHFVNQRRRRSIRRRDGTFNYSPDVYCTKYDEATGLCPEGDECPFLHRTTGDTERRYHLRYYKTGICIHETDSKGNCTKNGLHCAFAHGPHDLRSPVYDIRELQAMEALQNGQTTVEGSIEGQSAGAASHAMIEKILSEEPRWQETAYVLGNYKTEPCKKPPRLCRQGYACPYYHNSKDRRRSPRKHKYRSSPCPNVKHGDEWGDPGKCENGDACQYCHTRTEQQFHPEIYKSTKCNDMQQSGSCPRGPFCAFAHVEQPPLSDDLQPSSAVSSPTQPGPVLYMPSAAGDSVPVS
Technique: RNA Bind-n-Seq
Molecule type: RNA
Medium: in vitro
Tested at: 100 nM
Notes: RNA with constant flanks, vertebrate orthologous sites, ends assumed
Baseline: input RNA pool
Reading: higher = stronger binding
The bound/input enrichment of `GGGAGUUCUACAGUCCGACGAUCCUGUUGUGUGAAACAUGUCUACCCAGAAAAGUAAUAUUCUAUAAAUACUAUUAAACAACUUAGCUAUAUUAUUUUUAAGCAUUAAAUUAUACAUCAAGGAGUUAAAGUGAAUUUCAGAGUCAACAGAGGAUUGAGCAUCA` is reported as 0.328 ratio.
For `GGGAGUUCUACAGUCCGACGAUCAAAUUUAUUUCAUGCCCUGGACUCCCUAUCGUACCGAUACUUUAAUAGAAUAUGCUUCUAUAGAAGAUUUCCAAAACAGUCGCCAGACAACAACAUACAAACUUCCAAAUCGAGUAGAUGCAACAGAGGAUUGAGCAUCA`, the bound/input enrichment was 0.96 ratio.
`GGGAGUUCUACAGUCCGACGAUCUCCCACCUGUCUCACUGGCUCUCUGUUCGCUCAGUCCCUCCUUGGGCCUCUUAGGGGUUUUUCCAUUUUGUCCAGUUGGGAUUUUUUUUUAUUUUUUUAAAUUACCGAGAACUUCAAACACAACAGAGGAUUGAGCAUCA` gave a bound/input enrichment of 1.93 ratio.
`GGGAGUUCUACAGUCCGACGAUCUCCUGUACAGCAAGGACAGGGGGACCCCCCUCCGCAUUUCCCAGGAGCAAAAAGGCCAGGGAGAGCCCAGACACAUCCAGUUAUACGGUUCAGUUUUUGCUUUCUAUUAUUUUGUGUGUGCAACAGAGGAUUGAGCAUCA` has a bound/input enrichment of 0.376 ratio.
For `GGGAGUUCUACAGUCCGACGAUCUAUUAGUGUCCUACCAGCAUAUUAACCUCUCGUCUGUGCACAGCUUCCAACGUUACCGUCUAGUUAGAUUUUUAUUUAAAAUAUGAAAAACUGCUUUUCCCAAGACGUUUUUUAAAAACACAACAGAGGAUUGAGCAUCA`, the bound/input enrichment was 1.4 ratio.
With `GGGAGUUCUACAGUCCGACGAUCUCUCUCAGUUAGCUGUGUCCAAAAUUGCUAUGAGGGUUGGAAACAUUGAUUAGUUUCAUGUAGAACUACACUGGCAGGUGCUCAAUUACCAUCAUAGCAAGGUCAAAUACCAUCACAGUACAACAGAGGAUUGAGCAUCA` the bound/input enrichment was 1.36 ratio.
`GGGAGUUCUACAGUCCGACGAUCUGAAAAUGACUUUAAGCACCAUUAAAGAAUAAAAAGGCCCCCAAAUAUAAGACUCCUAAAUAGCUAUUUUUGAAACUAAAUGUUUAGAUUUUGUAAAUGAGCUGUUGCCCACUACACAAUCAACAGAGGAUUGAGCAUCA` has a bound/input enrichment of 0.805 ratio.
`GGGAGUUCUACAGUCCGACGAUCAUCUCUCCUUUUAUAUGUCAAAAAAAGGCUUUGAAUUUUUAAAUAAUUGCUAGUUUUGAUUAGCUCUACCUUUAUGAAGUGUUAUAAUUCACCACAAACAGAUAUCUGUCUGAAUUACUUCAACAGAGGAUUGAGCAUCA` gave a bound/input enrichment of 0.353 ratio.
For `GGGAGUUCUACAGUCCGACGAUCCCGCUAAACCCCAUUUCUUCUGUUUCAUAGUGCAGAAGUGUCCUUUCUCAGUUACAUUAUUAGUGGACUUGUUUUAAUUUUAGGGAAACUUCCAGUACAGAUACUGUGAGCUUACAUGGACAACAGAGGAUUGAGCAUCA`, the bound/input enrichment was 1.13 ratio.
`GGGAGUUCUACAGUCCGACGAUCUUCUCAACUUGUUCUAGCUGGUGAUCGUUCAAAGUUGGGUCAGGCAGUAGUGCUAGGUACUAGAAAUUUUCAUUUCCCUAUUGCCAUUGAUCAGAGAAGACAGACAUUAAAAAUAGAAAUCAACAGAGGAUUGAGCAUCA` gave a bound/input enrichment of 0.927 ratio.
`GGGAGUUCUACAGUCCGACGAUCUAUUAGCGUCAUACCAGCAUAUUAACCUCUUGUCUGUGCACAGCUUCAAAUGUUACCGUCUAGUUAGAUUUUUAUUUAAAAUAUGAUAAACUGCUUUUCCCAAGACUUUUUUAAAAAGAACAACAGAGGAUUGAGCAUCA` has a bound/input enrichment of 2.2 ratio.

Series 3
Target: POU domain, class 5, transcription factor 1, POU domain (Pou5f1, Mus musculus, UniProt P20263, residues 131-289)
UniProt P20263, sequence (131-289, looked up): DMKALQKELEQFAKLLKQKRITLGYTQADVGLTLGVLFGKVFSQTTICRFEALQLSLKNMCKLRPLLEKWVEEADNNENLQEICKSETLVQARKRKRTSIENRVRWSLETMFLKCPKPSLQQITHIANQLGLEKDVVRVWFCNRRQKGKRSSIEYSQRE
Technique: Spec-seq
Molecule type: double-stranded DNA, one strand shown
Medium: in vitro
Tested at: not given
Notes: whole probe, mean of replicates
Baseline: not given
Reading: lower = stronger binding
Constant ends, left off below: GAGTCGTCTCGTCAGCAC … CCGTAGAGCACTCAGGTC
For `GGGGTAAT`, “relative binding energy” read 0.841 ln ratio.
`TGCCTAAT` — result for “relative binding energy”: 0.792 ln ratio.
`ATTTAGAT`: “relative binding energy” -0.368 ln ratio.
Under “relative binding energy”, `ATCAGCAT` is recorded as -1.08 ln ratio.
`ATAGAAAT`: “relative binding energy” 0.366 ln ratio.
Under “relative binding energy”, `ATCCTCAT` is recorded as 0.814 ln ratio.
For `ATGCTGAG`, “relative binding energy” read 0.669 ln ratio.
Under “relative binding energy”, `ATGCAAGC` is recorded as -0.154 ln ratio.
`ATGCGTAG`: “relative binding energy” 0.189 ln ratio.
`ATGCAATT` — result for “relative binding energy”: -0.679 ln ratio.
Under “relative binding energy”, `GGTTTAAT` is recorded as 0.734 ln ratio.
`ATACATAT`: “relative binding energy” -1.33 ln ratio.
Under “relative binding energy”, `CGCATAAT` is recorded as -1.11 ln ratio.
For `ATCATAAT`, “relative binding energy” read 0.0214 ln ratio.
Under “relative binding energy”, `ATAAGCAT` is recorded as -0.42 ln ratio.

Series 4
Target: ABI1, truncated, D143A, DHFR fusion (Arabidopsis thaliana)
Technique: DHFR PCA, deep sequencing
Medium: yeast
Notes: methotrexate growth selection, single substitutions
Together with: (+)-ABA 200 µM
Baseline: wild-type fitted maximum
Reading: higher = stronger binding
Starting sequence: PYL1, truncated, DHFR fusion (Arabidopsis thaliana); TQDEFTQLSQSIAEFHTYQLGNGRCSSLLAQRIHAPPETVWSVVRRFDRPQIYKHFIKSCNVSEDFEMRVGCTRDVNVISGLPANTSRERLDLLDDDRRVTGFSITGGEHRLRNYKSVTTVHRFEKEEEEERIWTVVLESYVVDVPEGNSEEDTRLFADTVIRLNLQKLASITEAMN
`E129N`: “relative binding score” 98.8%.
Under “relative binding score”, `F5C` is recorded as 95%.
`F157E` — result for “relative binding score”: -4.38%.
`S80E` — result for “relative binding score”: 39.6%.
`I52W` — result for “relative binding score”: 90.2%.
Under “relative binding score”, `F56C` is recorded as 80.3%.
For `E89K`, “relative binding score” read -0.644%.
For `I172L`, “relative binding score” read 94.2%.
Under “relative binding score”, `I52M` is recorded as 100%.
For `T6K`, “relative binding score” read 103%.
For `A13L`, “relative binding score” read 95.2%.
Under “relative binding score”, `N22R` is recorded as 99.7%.
For `L169R`, “relative binding score” read -1.64%.
`A158W`: “relative binding score” 1.31%.
`M176A` — result for “relative binding score”: 101%.
`V137A` — result for “relative binding score”: 49.2%.
`H122T` — result for “relative binding score”: 49%.
For `V118K`, “relative binding score” read 93.4%.
For `L164H`, “relative binding score” read 99.1%.
`A158F`: “relative binding score” 29.3%.
`V143G` — result for “relative binding score”: 5.74%.
Under “relative binding score”, `L156M` is recorded as 102%.
For `Q2C`, “relative binding score” read 102%.

Excerpt of the above (series 3):
Under “relative binding energy”, `ATAAGCAT` is recorded as -0.42 ln ratio.
For `ATGCTGAG`, “relative binding energy” read 0.669 ln ratio.
Under “relative binding energy”, `ATGCAAGC` is recorded as -0.154 ln ratio.
Under “relative binding energy”, `CGCATAAT` is recorded as -1.11 ln ratio.
For `GGGGTAAT`, “relative binding energy” read 0.841 ln ratio.
`ATGCAATT` — result for “relative binding energy”: -0.679 ln ratio.
`ATACATAT`: “relative binding energy” -1.33 ln ratio.
Under “relative binding energy”, `ATCCTCAT` is recorded as 0.814 ln ratio.
Under “relative binding energy”, `ATCAGCAT` is recorded as -1.08 ln ratio.
`ATAGAAAT`: “relative binding energy” 0.366 ln ratio.
